# Experimental data collected from several papers.
# Parts stem from different laboratories: compare values within a part only.

# Set 1
# Target: RNA binding protein fox-1 homolog 2, RRM domain, GST-SBP tag (RBFOX2, Homo sapiens, UniProt O43251-10, residues 100-194)
# Technique: RNA Bind-n-Seq
# Molecule type: RNA
# Sample: in vitro
# Tested at: 365 nM
# Setting: natural RNA segment, single round, ends assumed
# Reference: no-protein control
# Direction: higher = stronger binding
# All sequences stand within: GGGAGUUCUACAGUCCGACGAUC … UGGAAUUCUCGGGUGCCAA
# Target sequence (chain): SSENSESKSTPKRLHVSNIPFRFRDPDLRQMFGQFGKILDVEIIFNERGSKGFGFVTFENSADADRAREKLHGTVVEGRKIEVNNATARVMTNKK
Oligonucleotide,RBNS enrichment (R)
GCUGCCUCGUCCUGACCCACGGAAGGUGGCAGAGUGCUCCCUGCCUGGCCCCUGGCCCCUGGCCCCUUGCCUGGCUGGCUUGACAGCCUGAGCACAAGAAGCAGUAAGUU,0.369
CCCCUGAAAAUAUUUGCUUGUAAAUGAAAACUUAGCUAGGGCUUAAAUAAACAUGUUGCUAUGAAAUAUUUUUACUGUAUUGUUCUUUUUCCAAAUUGCAAGAGAAUGGC,0.963
AUGAAAUGUCACCACCCGUUUGCGCUCUCAUUCCUUCCAAGCCUGUGACUGGUAUUUUCUCAUGAUGAAUCCUCUCAGGACAUGGCAGAGCUUGGCGAGUACAAAGGGAG,0.414
AUGAACUAUAAUUGAAUAGAUACCAAAAAUAGAAUGACAAAUGUAUUUUAAUAGCAGAUGAGGCAGUUUUAGGAUGAAUUUUCCACUGUUGAUUUUACUUCAAGACAUAG,0.497
CCUGCUGUAGAAGGUCACUUGGCUCCAUUGCCUGCUUCCAACCAAUGGGCAGGAGAGAAGGCCUUUAUUUCUCGCCCACCCAUUCCUCCUGUACCAGCACCUCCGUUUUC,1.29
AGCUGGGCAAGACCACUGGGAGGCCUGAGAGUGGGCCAGCUCGCUGCUCAGGCGAAUUUCUCAUUUCAAGCCACUGGGGAAACUGAGGCAAAACCAUACUUAGUCAUCAC,0.234
GCUUGGCCAUUUAUCUAAGGAAGAUGAGCCAAAAUUAUGACAUCUAAAAUAAUCGUCAGUCUUAAGAGUAAAGACAGCGAAACUGCACACUUAUAAGUUCUUUUCAGCUU,0.301

# Set 2
# Target: Sal-like protein 4, full length isoform A (SALL4, Homo sapiens, UniProt Q9UJQ4, residues 1-1053)
# UniProt Q9UJQ4, sequence (whole entry, looked up): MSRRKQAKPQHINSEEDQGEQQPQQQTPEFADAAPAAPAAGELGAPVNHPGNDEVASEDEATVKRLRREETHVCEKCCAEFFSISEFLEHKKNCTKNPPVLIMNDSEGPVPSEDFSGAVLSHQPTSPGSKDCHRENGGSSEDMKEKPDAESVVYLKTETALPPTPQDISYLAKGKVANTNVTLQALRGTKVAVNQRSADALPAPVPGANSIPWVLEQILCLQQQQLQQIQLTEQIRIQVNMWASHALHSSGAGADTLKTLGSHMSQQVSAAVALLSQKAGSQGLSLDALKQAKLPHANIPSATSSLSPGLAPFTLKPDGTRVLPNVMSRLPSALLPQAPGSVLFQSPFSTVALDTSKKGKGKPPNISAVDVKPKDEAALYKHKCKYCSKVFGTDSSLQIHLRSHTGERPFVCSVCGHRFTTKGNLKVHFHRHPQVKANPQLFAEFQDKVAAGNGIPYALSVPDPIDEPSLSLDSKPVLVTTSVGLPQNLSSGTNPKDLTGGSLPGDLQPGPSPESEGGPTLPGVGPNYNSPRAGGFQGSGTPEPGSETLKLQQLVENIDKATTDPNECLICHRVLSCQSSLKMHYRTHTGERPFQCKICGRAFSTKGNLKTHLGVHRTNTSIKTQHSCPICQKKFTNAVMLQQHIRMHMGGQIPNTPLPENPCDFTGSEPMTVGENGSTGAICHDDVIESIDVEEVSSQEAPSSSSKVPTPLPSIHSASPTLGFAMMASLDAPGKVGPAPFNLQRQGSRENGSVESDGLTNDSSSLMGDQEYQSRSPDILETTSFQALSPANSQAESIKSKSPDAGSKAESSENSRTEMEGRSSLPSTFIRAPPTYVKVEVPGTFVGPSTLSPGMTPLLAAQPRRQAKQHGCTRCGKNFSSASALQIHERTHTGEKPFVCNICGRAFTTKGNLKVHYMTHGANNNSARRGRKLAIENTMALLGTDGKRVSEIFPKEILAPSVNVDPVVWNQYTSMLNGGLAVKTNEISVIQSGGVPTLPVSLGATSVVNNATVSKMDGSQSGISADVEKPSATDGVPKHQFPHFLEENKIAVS
# Technique: universal PBM
# Molecule type: double-stranded DNA, one strand shown
# Sample: in vitro
# Tested at: 600 nM
# Setting: 8-mer, flanks averaged, mean of replicates
# Direction: higher = stronger binding
Oligonucleotide,E-score
CGGAGTCA,-0.217
CTAAGAAA,0.144
TACACGGA,0.16
GGCGAATA,0.0571
CGCTTCCC,-0.139
TATCCTAA,0.203
GAAGTAAC,0.0407
AATGACGG,-0.0503
AATCGTTG,0.0837
CTGGAACC,-0.228

# Set 3
# Target: Protein C-ets-1 (ETS1, Homo sapiens, UniProt P14921, residues 1-441, full length assumed)
# Technique: protein-binding microarray
# Molecule type: double-stranded DNA, one strand shown
# Sample: in vitro
# Tested at: not given
# Setting: k-mer, scored over probes, only values ≥0.25
# Direction: higher = stronger binding
# Target sequence (chain): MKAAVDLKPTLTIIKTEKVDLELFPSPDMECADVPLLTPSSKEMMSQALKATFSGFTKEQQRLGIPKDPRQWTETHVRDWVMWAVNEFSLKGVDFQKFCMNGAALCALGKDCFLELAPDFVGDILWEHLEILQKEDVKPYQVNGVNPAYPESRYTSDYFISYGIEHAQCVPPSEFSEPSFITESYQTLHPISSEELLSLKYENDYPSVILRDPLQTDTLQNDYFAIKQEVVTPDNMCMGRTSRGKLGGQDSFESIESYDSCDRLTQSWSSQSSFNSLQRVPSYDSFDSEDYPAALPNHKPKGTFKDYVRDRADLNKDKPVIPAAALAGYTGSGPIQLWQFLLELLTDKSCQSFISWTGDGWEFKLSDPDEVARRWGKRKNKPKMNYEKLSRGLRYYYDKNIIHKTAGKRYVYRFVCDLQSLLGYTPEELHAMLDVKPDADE
Oligonucleotide,E-score
AGGATACG,0.36
CAGCCGGA,0.459
AACTTCCT,0.478
GGAACTCA,0.282
CCTCGAGG,0.312

# Set 4
# Substance: PhoQ, residues 284 288 289 292 302 303 SSLVEF
# Technique: Sort-seq
# Refers to: YFP reporter
# Sample: E. coli
# Setting: PhoQ-PhoP variant library
# Added: 10 µM Mg2+
# Reference: high Mg2+ state
# Direction: higher = stronger signaling
target,fold induction
"PhoP, residues 12 14 15 18 19 TQCLL (Escherichia coli, UniProt P23836)",8.34
"PhoP, residues 12 14 15 18 19 ICWRQ (Escherichia coli, UniProt P23836)",10.8
"PhoP, residues 12 14 15 18 19 VHTVL (Escherichia coli, UniProt P23836)",19.1

# For quick reference, copied from above (set 4):
target,fold induction
"PhoP, residues 12 14 15 18 19 TQCLL (Escherichia coli, UniProt P23836)",8.34
"PhoP, residues 12 14 15 18 19 ICWRQ (Escherichia coli, UniProt P23836)",10.8
"PhoP, residues 12 14 15 18 19 VHTVL (Escherichia coli, UniProt P23836)",19.1
